Assay results of several laboratories.
Parts stem from different laboratories: compare values within a part only.

Series 1 — technique: RNA Bind-n-Seq; form: RNA; matrix: in vitro; concentration: not given; reference: input RNA pool; reading: higher = stronger binding
Target: RING finger protein unkempt homolog, zinc fingers 1-6, GST-SBP tag (UNK, Homo sapiens, UniProt Q9C0B0, residues 30-357)
Notes: RNA with constant flanks, human and mouse sites, ends assumed
Shared flanks, not repeated: GGGAGUUCUACAGUCCGACGAUC … CAACAGAGGAUUGAGCAUCA
Target sequence (chain): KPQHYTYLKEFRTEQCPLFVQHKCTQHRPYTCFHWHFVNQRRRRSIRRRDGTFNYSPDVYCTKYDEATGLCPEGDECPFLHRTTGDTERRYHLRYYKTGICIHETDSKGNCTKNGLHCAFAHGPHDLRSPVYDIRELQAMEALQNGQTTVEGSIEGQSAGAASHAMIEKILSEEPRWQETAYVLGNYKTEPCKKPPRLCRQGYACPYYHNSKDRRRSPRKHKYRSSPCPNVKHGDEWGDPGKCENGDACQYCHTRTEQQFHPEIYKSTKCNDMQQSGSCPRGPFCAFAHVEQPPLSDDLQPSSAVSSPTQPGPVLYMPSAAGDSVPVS
Sequence | bound/input enrichment
GCCUUUCUUGUUUUUAGUUUUAUAUUCUUUUUCUAUUAUUUAAAGAACCUCAGAGACUUUGUAAAUAUCGUUCGUAUCUUUCCAGUGAGUUAUUGGGCAGGAACGGUUGUCUUUGAGUAG | 48.8 ratio
UGUUGUGUCUGUGCUAACCUGGGAACUGGCCACCUCCAUUGUUCUUUGCUUCUGCACAAGAUCCAUGAAAAUCCAUUGAUCAGAAGAACUUCACCUGCAGACCUCUUCAAGUGACACUAU | 0.0777 ratio
GAGGCCCUGGCCAGCCCCCAGAUCGUAGCAUCGUUCACCUCUCAGUCUGUGGAUCAGUCUAAAGUGUUUGUGAAGGUGUUUACUGAAAUCGACCGGAUGCCCCAGCUCCUUGCAUACUAC | 0.213 ratio
CCAAAUGGAUUGCUUCUGACUCCGAGUCCACUGCUCUCCAGCAUACAUUUCUGGAGCAGCCUUAGUCCAGUUGCUCCGCUGAGUCCUGCCAGGCUGCAAGGGCCAAGCACGCUGUUCCAG | 0.0589 ratio
CAUACUUGAACAUUUGUAUCGACUGCAUUGUCUCUCUUUUUUUGGCUAUAAUUAUUCACCUUUAGCUUUUGUCUCUUGUGCAUGCUAUCACAGUUUUGCUUGUAUUUUUAGCAUAUGAAC | 2.13 ratio
CUGAAGUACAAUCAAGCUACACAGACUUUCCACCAAUGGAGGGAUGCUAGACAGGUGUAUGGUCUCAACUUUGGCAGCAAAGAGGAUGCCAAUGUCUUCGCAAGUGCCAUGAUGCAUGCC | 0.12 ratio
UUUACUUUUUUUGUGUGUUAAUGGUGUGUGCUCCCUCUCCCUCUCUUCCCUUUCCUGACCUUUAGUCUUUCACUUCCAAUUUUGUGGAAUGAUAUUUUAGGAAUAACGGACUUUUAAAGA | 0.967 ratio
GAACCUAUUGUGUUGAGGCUGCGAUUUUCUCUCUCCCAGUACCUAGAUGGACCAGAACCAUCCAUUGAGGUUUUCCAGCCAUCAAAUAAGGAAGGAUUUGGGCUGGGUCUUCAGUUGAAA | 0.22 ratio

Series 2 — technique: protein binding microarray; form: double-stranded DNA, one strand shown; matrix: in vitro; concentration: not given; reference: not given; reading: higher = stronger binding
Target: Histone acetyltransferase KAT6A, winged helix 1, GST fusion (KAT6A, Homo sapiens, UniProt Q92794, residues 1-85)
Notes: 8-mer, flanks averaged, mean of 2 arrays, mostly near background
Target sequence (chain): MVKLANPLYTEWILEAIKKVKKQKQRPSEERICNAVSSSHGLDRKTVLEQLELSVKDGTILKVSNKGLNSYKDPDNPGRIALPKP
Sequence | E-score
CACACAGG | -0.232
CAGCTTTC | -0.0646
GTTTCTTA | -0.0761
ACGGTTTG | 0.0732
CTACCGCC | 0.284
CTTGATTA | -0.0613
CGTGGCCA | -0.086
GATAGGGC | -0.173
GTAGGCGA | -0.046
TAATCGCA | 0.00549
CACTAGGG | -0.0556
GATTGCTA | -0.157
CTAATCCA | -0.179
ATTCAAAT | -0.235
AATCGCCC | 0.0228
CCCCAAGA | -0.264
CCCTGACG | -0.0246
AACCGAAC | -0.163

Series 3 — technique: aptamer microarray, sandwich; form: DNA with 2'F-ANA; matrix: in vitro; concentration: 200 nM; added: Cy3 exosite-II aptamer, 400 nM; reading: higher = stronger binding; sequence: GGTTGGTGTGGTTGG
Target: Prothrombin, mature alpha-thrombin (F2, Homo sapiens, UniProt P00734)
Notes: whole 15-mer aptamer, many near background
Modification | mean fluorescence intensity
2'F-ANA at 1 3 4 8 10 12 13 | 71.3 a.u.
2'F-ANA at 2 4 6 7 9 10 12 15 | 98.9 a.u.
2'F-ANA at 1 3 5 6 7 8 10 11 13 14 15 | 47.9 a.u.
2'F-ANA at 2 6 9 13 14 15 | 293 a.u.
2'F-ANA at 2 4 9 11 13 15 | 159 a.u.
2'F-ANA at 1 2 3 4 5 8 9 10 11 12 | 51.4 a.u.
2'F-ANA at 3 5 7 9 10 11 12 13 14 | 106 a.u.
2'F-ANA at 1 4 6 9 13 14 | 76.8 a.u.
2'F-ANA at 1 2 3 5 6 7 9 13 14 15 | 55.5 a.u.
2'F-ANA at 2 3 6 8 9 10 12 15 | 401 a.u.
2'F-ANA at 3 4 8 9 12 13 14 | 344 a.u.
2'F-ANA at 5 6 11 12 13 | 99.9 a.u.
2'F-ANA at 1 3 4 5 9 10 11 13 14 15 | 47 a.u.
2'F-ANA at 2 4 5 6 7 11 12 | 114 a.u.
2'F-ANA at 1 6 7 9 12 13 15 | 229 a.u.
2'F-ANA at 2 4 6 12 14 | 119 a.u.
2'F-ANA at 1 2 3 4 6 7 10 13 | 51 a.u.
2'F-ANA at 1 2 3 7 8 13 14 15 | 83.6 a.u.
2'F-ANA at 1 2 3 9 11 12 13 14 15 | 102 a.u.
2'F-ANA at 1 2 6 9 10 14 15 | 45.7 a.u.
2'F-ANA at 1 2 3 5 6 11 12 13 14 15 | 51.5 a.u.
2'F-ANA at 1 2 3 9 12 13 15 | 351 a.u.

Series 4 — technique: RNA Bind-n-Seq; form: RNA; matrix: in vitro; concentration: 90 pmol; notes: 4-mer, random 30-nt RNA, single round; reference: input library; reading: higher = stronger binding
Target: Eukaryotic initiation factor 4A-I (EIF4A1, Homo sapiens, UniProt P60842, residues 1-406, full length assumed)
UniProt P60842, sequence (whole entry, looked up): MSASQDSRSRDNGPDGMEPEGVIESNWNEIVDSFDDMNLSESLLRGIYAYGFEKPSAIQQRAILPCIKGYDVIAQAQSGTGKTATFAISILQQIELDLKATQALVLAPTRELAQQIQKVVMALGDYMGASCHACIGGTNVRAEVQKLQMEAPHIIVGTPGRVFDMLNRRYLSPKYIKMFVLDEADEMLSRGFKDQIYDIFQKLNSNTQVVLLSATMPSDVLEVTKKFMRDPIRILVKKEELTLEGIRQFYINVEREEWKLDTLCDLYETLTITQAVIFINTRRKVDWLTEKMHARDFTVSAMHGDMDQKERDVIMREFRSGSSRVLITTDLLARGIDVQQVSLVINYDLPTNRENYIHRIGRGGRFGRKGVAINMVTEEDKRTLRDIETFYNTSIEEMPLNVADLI
Added: 3 µM iPr-DMDA-PatA, 2 mM ADP, 2 mM phosphate
Sequence | 4-mer enrichment
AUAA | 1.53 fold
UGCG | 0.759 fold
AAUG | 1.19 fold
UGUA | 1.08 fold
CAUG | 0.897 fold
AGGC | 0.868 fold
GCGU | 0.761 fold
CUGC | 0.764 fold

Series 5 — technique: RNA Bind-n-Seq; form: RNA; matrix: in vitro; concentration: 365 nM; reference: no-protein control; reading: higher = stronger binding
Target: RNA binding protein fox-1 homolog 2, RRM domain, GST-SBP tag (RBFOX2, Homo sapiens, UniProt O43251-10, residues 100-194)
Notes: natural RNA segment, single round, ends assumed
Shared flanks, not repeated: GGGAGUUCUACAGUCCGACGAUC … UGGAAUUCUCGGGUGCCAA
Target sequence (chain): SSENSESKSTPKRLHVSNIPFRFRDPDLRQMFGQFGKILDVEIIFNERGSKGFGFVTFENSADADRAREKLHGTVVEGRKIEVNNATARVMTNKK
Sequence | RBNS enrichment (R)
CUUUAAACUAGUAUGUGCAUCAGAUGCUUACAGCAGAAGUUUGCACAGGUAAGAGAAGCUGCCAGUGACGUUCUGUGGGGCCUGGCUUUGGGCAGCUGCUCAUCAUUGAG | 0.32
GAAGUUCAUGGUGAUCAGUGCAAUUGACCUUCUCCCUCACUCCUGCCAGUUGAAAAUGGAUUUUUAAAUUAUACUGUAGCUGAUGAAACUCCUGAUUUUGUAGUUAAUUU | 2.21
CCAAAGAUCUUUUUGUUUUGGCUUUAGUAUCAUAUGUGCUUUUUCUGUAUCCUGAGCGCUCUAUAUGAUCAUGUUAAUUUAAAGCUUUAUACACAUUGUUGUUUUUGCUG | 0.472
CUUGACAUGCUGGUCUGGGGAGAGACAGGGCCUCUGCUGCCCUGUUCUUCACCCUCACAGUGAUACCUCCUUUCCUUGGGUCUCUUGGCCUCCAGACCCCCUCAAUAGAC | 0.393
ACUUUUCCUCCUUUUUACAAAGAGAGGGCUGGCUUAGUUAUUUGCCAAAGCCCCUUCCAGGCCUGAAUUCCACAAGUACGAUUUACUGUAGUGUCUUAUCACUCUUUCAU | 0.404
AUGGCUUUAUUUAUGAGUGUGGCUUUGAGGAGUUGGGAAGAGGUAACCCACUUCUCUCCCAUCUUCUCCGAGCCAUGACUCAAGAAGAAAAGGGUGCUCGGACUCUCUUA | 0.187
CACUGGACGGGUGCUGCAUCGGCAAGGCCAAGUUGAACACCGGAUGGUGCCAACCAUCGGUUGUUUGGCAGCAGCUUUGAACGUAGCGCCUGUGAACUCAGGAAUGCACA | 0.829
UUCAGAGGGCCACUGGGUUAGGACCUGAGGACCUCACUUGGCCCUGCAAGGCCCGCUUUUCAGGGACCAGUCCACCACCAUCUCCUCCACGUUGAGUGAAGCUCAUCCCA | 0.219

Repeated from above (series 3):
Modification | mean fluorescence intensity
2'F-ANA at 5 6 11 12 13 | 99.9 a.u.
2'F-ANA at 1 3 4 5 9 10 11 13 14 15 | 47 a.u.
2'F-ANA at 2 4 5 6 7 11 12 | 114 a.u.
2'F-ANA at 1 6 7 9 12 13 15 | 229 a.u.
2'F-ANA at 2 4 6 12 14 | 119 a.u.
2'F-ANA at 1 2 3 4 6 7 10 13 | 51 a.u.
2'F-ANA at 1 2 3 7 8 13 14 15 | 83.6 a.u.
2'F-ANA at 1 2 3 9 11 12 13 14 15 | 102 a.u.
